# Assay results gathered from unrelated publications.
# A part holds a random share of what one study measured. Changes are numbered by the printed parent chain.

# Block 1 — method: protein-binding microarray; form: double-stranded DNA, one strand shown; matrix: in vitro; concentration: 2540 nM top; notes: 60-bp whole probe; with: salmon DNA 0.4 mg/ml; baseline: random background probes; reading: higher = stronger binding; shared flanks, not repeated: GCCTAGCAC … GTCTTGATTCGCTTGACGCTGCTG
# Target: Interferon regulatory factor 3, full length, phosphomimetic (IRF3, Homo sapiens, UniProt Q14653, residues 1-427, S386D/S396D/S398D/S402D/T404D/S405D)
# Residues (chain): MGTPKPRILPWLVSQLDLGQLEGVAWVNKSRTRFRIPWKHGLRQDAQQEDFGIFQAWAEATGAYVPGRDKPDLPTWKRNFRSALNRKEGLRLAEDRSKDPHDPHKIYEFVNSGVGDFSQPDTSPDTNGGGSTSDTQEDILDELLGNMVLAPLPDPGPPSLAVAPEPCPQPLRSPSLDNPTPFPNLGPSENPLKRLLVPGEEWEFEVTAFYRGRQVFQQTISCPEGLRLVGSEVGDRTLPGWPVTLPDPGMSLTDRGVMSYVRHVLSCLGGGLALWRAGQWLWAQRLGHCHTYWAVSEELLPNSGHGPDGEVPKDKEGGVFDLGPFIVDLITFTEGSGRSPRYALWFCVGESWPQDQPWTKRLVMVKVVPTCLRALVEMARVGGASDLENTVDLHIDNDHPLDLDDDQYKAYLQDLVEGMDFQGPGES
Oligonucleotide,fitted relative affinity [z-score]
TGAGGACTGGGTCTCGGTTAGTGCTAG,-1.1
TTAGATTCCCGTTTCGATTAGTGCTAG,3.96
TTAGTTATCAGTATCGATTAGTGCTAG,2.22
GTCACATTGCACAATCTTAATGTGCTA,1.08
GTTGCTCTCTCACCACCTTCGTGCTAG,1.66
GACGTTTTCAGACTGGAGACGTGCTAG,1.75
TTCGGTATCCTTCTCCTTTAGTGCTAG,7.37
TTAGAACTGAGTATCGATCAGTGCTAG,-0.134
AGGGCGGCTGAGTCAGCACAGTGCTAG,-1.11
GACGGACTGGACTATCGCGACGTGCTA,-0.595
TCATTTCTGGTTCCCATACTGTGCTAG,3.01
GACGGTCTCCTTATCCTGCCGTGCTAG,2.5
GACGGTTTCGACAGTGGGGACGTGCTA,2.35
TGTGATCTCATATGAAAACAGTGCTAG,0.458
GACGGTTTCGGACAGGGGACGTGCTAG,3.07
GACGGACTGCTACTGCTTACGTGCTAG,-0.666
TTAGGTATCGACACTAGGTTAGTGCTA,0.28
TCATTTTTTTTTTTTGTACTGTGCTAG,1.24

# Block 2 — method: DHFR PCA, deep sequencing; matrix: yeast; with: (+)-ABA 710 µM; baseline: wild-type fitted maximum; reading: higher = stronger binding
# Target: ABI1, truncated, D143A, DHFR fusion (Arabidopsis thaliana)
# Notes: methotrexate growth selection, single substitutions
# Parent: PYL1, truncated, DHFR fusion (Arabidopsis thaliana); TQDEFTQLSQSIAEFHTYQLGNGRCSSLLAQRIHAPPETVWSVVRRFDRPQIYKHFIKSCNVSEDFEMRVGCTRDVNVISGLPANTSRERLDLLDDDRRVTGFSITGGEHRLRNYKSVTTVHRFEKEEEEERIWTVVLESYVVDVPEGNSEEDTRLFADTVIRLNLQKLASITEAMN; partner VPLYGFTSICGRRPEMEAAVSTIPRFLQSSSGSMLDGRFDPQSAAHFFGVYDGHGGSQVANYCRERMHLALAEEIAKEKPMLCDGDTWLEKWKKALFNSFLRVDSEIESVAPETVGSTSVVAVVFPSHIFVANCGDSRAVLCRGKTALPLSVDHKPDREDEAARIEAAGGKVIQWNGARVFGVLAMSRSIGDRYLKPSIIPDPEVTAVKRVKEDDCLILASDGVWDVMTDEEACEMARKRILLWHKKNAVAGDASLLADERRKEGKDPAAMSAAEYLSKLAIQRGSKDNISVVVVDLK
Variant,relative binding score
G21D,99.8%
R74K,-19.5%
S11W,104%
E151N,98.6%
N85T,109%
S140G,54.5%
Y141T,-3.67%
H16V,19.9%
T135R,10.9%
E38W,87.8%
E139K,73%
E4W,104%
G148M,87.9%
R88Q,108%
F157M,98.4%
V62G,70.2%
L82R,4.03%
T154W,-11.1%

# Block 3 — target: CREBZF, bZIP domain (human); method: DHFR protein complementation; matrix: yeast; baseline: wild-type JUN-FOS pair; reading: higher = stronger binding
# Notes: single substitutions, most at no-binding floor
# Parent: JUN, bZIP domain (human); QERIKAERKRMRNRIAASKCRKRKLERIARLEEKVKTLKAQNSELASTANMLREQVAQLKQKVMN; partner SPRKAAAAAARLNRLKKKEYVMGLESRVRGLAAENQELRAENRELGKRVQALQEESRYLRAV
Variant,binding fitness
L31D,-1.52 natural log
L31P,-1.39 natural log
V56E,-1.57 natural log
K39T,-1.45 natural log
L45S,-1.48 natural log
K36W,-1.54 natural log
E33R,-1.5 natural log
T37Q,-1.45 natural log
R30L,-1.53 natural log
R30N,-1.49 natural log
K36T,-1.59 natural log
E32I,-1.51 natural log
A49Y,-1.56 natural log
K39A,-1.36 natural log
S43D,-1.5 natural log
N42M,-1.42 natural log
V35A,-1.49 natural log
T37N,-1.19 natural log

# Block 4 — target: UBE2U UBC core domain (UniProt Q5VVX9); method: yeast two-hybrid; matrix: yeast; notes: mostly zero background; baseline: not given; reading: higher = stronger interaction
# Chain of UniProt Q5VVX9 (whole entry, looked up): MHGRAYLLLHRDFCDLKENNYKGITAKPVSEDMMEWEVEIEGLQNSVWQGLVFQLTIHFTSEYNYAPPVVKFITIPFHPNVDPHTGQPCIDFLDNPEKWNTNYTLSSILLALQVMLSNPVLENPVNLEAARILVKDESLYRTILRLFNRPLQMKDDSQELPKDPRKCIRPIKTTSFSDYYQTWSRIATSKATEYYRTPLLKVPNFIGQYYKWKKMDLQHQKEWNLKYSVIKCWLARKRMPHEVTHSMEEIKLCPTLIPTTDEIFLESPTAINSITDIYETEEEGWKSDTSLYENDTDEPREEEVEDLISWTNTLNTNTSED
# B1: RNF152 RING domain (UniProt Q8N8N0); chain ETLSQDSLLECQICFNYYSPRRRPKLLDCKHTCCSVCLQQMRTSQKDVRCPWCRGVTKLPPGFS
# B2: TRIM54 RING domain (UniProt Q9BYV2); chain SMDNLEKQLICPICLEMFSKPVVILPCQHNLCRKCANDVFQASNPLWQSRGSTTVSSGGRFRCPSCRHEVVLDRHGV
# B3: RNF183 RING domain (UniProt Q96D59); chain EQQGRELEAECPVCWNPFNNTFHTPKMLDCCHSFCVECLAHLSLVTPARRRLLCPLCRQPTVLASGQP
# B4: RNF2 RING domain (UniProt Q99496); chain SPRSLHSELMCPICLDMLKNTMTTKECLHRFCADCIITALRSGNKECPTCRKKLVSKRSLR
# B5: TRIM26 RING domain (UniProt Q12899); chain PLRSLEEEVTCSICLDYLRDPVTIDCGHVFCRSCTTDVRPISGSRPVCPLCKKPFKKENIRP
# B6: MYCBP2 RING domain (UniProt O75592); chain TSLKQDADDMCMICFTEALSAAPAIQLDCSHIFHLQCCRRVLENRWLGPRITFGFISCPICKNKINHIVLKD
# B7: RNF31 RING domain (UniProt Q96EP0); chain AFLRRLLAQECAVCGWALPHNRMQALTSCECTICPDCFRQHFTIALKEKHITDMVCPACGRPDLTDDTQLL
# B8: RNF122 RING domain (UniProt Q9H9V4); chain AKKLQLYGQTCAVCLEDFKGKDELGVLPCQHAFHRKCLVKWLEVRCVCPMCNKPIASPSEAT
Molecule,lacZ reporter activity
B1 (RNF152 RING domain),15100
B2 (TRIM54 RING domain),16400
B3 (RNF183 RING domain),0
FVKTVEDKYKCEKCHLVLCSPKQTECGHRFCESCMAALLSSSSPKCTACQESIVKDKVF (TRAF3 RING domain (UniProt Q13114)),0
YCEMGSTFQLCKICAENDKDVKIEPCGHLMCTSCLTAWQESDGQGCPFCRCEIKGTEPII (CBLB RING domain (UniProt Q13191)),9740
B4 (RNF2 RING domain),7770
RYRQMEERITCPICIDSHIRLVFQCGHGACAPCGSALSACPICRQPIRDRIQIF (MIB2 RING domain (UniProt Q96AX9)),0
B5 (TRIM26 RING domain),0
B6 (MYCBP2 RING domain),0
YPEEVDDDLICHICLQALLDPLDTPCGHTYCTLCLTNFLVEKDFCPMDRKPLVLQHCKK (LNX1 RING domain (UniProt Q8TBB1)),0
B7 (RNF31 RING domain),7420
B8 (RNF122 RING domain),0

# Block 5 — method: universal PBM; form: double-stranded DNA, one strand shown; matrix: in vitro; concentration: not given; reading: higher = stronger binding
# Target: Sal-like protein 4, full length isoform B (SALL4, Homo sapiens, UniProt Q9UJQ4-2, residues 1-616)
# Notes: 8-mer, flanks averaged, mean of replicates
Oligonucleotide,E-score
GTTCAAGA,0.0457
CTCTCTGC,-0.249
AAATCATT,0.303
ATAAACTG,0.19
CAAATCGC,-0.0947
TCATAGCA,0.145
CTTTATGA,0.335
GAATCCTA,0.192
CAGTACAG,0.0756
GGGGTAGA,-0.0394
CAGAACAG,-0.104
CGTGGCGA,-0.298
AACCTGAA,-0.0578
CCAGAGGG,-0.332
CCACAATA,0.191
GTTTAAGA,-0.0556
CGTGACGC,-0.0161
CTCTGAGC,-0.295
TCCTCAAA,0.14
GGCGCCAC,-0.383
TCACTGCA,0.17
AAAGTAGC,-0.00133
CAATTTGG,0.0768

# Block 6 — target: CCNB1, cyclin fold, Cln2 fusion (human); method: yeast growth competition, sequencing; matrix: yeast; notes: weak parent motif; baseline: not given; reading: higher = stronger binding
# Parent: RB1 docking peptide (human); PKPLKKLRFDIEG
Variant,normalised enrichment score
PKPLKGLRFDIEG [K6G],0.518
PKPLKKLRFDIEN [G13N],0.00523
PKPLKKLRFSIEG [D10S],-0.795
PKPLKKVRFDIEG [L7V],0.0678
PKPLKKLRFIIEG [D10I],0.362
PKMLKKLRFDIEG [P3M],0.356
PKYLKKLRFDIEG [P3Y],0.219
PKPLYKLRFDIEG [K5Y],0.841
PKPLKALRFDIEG [K6A],0.761
PKPLKKRRFDIEG [L7R],1.07
PKPLRKLRFDIEG [K5R],0.23
PKPLKKLRFDDEG [I11D],0.201
PYPLKKLRFDIEG [K2Y],1.12
PKPLKQLRFDIEG [K6Q],0.972
PKPLKKLRKDIEG [F9K],0.42
PKPEKKLRFDIEG [L4E],0.372
PKPLKKLRFDSEG [I11S],0.0202
PKPLKKLRFDIEP [G13P],0.828
PVPLKKLRFDIEG [K2V],0.804
PIPLKKLRFDIEG [K2I],0.966
PKPLKKLRFDIQG [E12Q],0.933
PKGLKKLRFDIEG [P3G],1.09
PKPLFKLRFDIEG [K5F],0.0935
PKPLKKLRFDIWG [E12W],0.646
PDPLKKLRFDIEG [K2D],0.239

# For quick reference, copied from above (block 2):
Variant,relative binding score
E151N,98.6%
S140G,54.5%
L82R,4.03%
H16V,19.9%
Y141T,-3.67%
G21D,99.8%
R74K,-19.5%
E38W,87.8%
E4W,104%
V62G,70.2%
N85T,109%
T154W,-11.1%
R88Q,108%
F157M,98.4%
T135R,10.9%
S11W,104%
